# Published values pooled from the literature.
# Each line is one published result; not all experiments were run side by side. Values joined by “and” are separate records of one study, mostly repeats; a detail may differ. Numbers after ± are the reported error.
# Genome polyprotein NS3 helicase domain: Genome polyprotein, NS3 helicase domain (Hepatitis C virus genotype 1b, UniProt Q9WMX2)
# WD repeat-containing protein 91: WD repeat-containing protein 91 (Homo sapiens, UniProt A4D1P6)
# Chain of UniProt A4D1P6 (whole entry, looked up): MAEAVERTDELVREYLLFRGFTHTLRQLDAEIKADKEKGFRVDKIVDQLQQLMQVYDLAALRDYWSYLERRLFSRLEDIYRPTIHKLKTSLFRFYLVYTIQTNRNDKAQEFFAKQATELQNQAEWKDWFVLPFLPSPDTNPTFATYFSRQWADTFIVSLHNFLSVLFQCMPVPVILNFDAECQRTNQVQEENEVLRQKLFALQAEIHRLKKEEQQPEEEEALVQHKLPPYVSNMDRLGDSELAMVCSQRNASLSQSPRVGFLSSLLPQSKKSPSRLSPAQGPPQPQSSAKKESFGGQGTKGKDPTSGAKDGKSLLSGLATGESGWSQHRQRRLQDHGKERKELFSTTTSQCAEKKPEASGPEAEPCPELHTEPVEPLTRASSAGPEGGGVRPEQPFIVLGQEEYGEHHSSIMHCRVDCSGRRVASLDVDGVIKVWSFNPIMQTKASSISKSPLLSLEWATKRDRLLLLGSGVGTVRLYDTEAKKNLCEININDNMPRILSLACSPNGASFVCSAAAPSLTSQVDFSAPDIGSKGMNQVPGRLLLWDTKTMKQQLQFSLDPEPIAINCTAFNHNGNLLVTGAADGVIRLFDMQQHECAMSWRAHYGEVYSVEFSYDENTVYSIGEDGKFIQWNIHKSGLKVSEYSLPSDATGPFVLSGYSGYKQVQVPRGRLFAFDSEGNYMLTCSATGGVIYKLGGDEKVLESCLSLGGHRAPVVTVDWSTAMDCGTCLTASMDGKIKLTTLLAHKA
# ESR1: Estrogen receptor (ESR1, Homo sapiens, UniProt P03372)
# Chain of UniProt P03372 (whole entry, looked up): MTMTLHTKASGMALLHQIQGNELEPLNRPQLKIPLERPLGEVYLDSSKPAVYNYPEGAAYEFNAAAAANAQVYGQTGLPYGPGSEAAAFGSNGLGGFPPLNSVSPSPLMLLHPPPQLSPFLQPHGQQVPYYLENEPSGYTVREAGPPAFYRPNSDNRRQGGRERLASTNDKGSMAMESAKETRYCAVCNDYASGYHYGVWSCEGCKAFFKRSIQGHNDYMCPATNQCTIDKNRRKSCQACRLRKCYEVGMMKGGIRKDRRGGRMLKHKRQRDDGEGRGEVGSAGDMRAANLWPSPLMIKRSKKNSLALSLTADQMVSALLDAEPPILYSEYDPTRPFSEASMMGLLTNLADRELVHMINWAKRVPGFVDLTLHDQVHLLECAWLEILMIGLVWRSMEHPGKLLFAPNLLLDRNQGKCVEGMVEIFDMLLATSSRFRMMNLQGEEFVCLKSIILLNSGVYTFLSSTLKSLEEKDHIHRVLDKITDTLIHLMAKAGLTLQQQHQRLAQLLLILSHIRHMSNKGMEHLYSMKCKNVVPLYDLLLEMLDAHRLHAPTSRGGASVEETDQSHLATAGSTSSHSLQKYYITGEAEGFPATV
# WD repeat-containing protein 91 WD40 domain, residues 392–747: WD repeat-containing protein 91, WD40 domain, residues 392–747 (Homo sapiens, UniProt A4D1P6)
# Chain of UniProt Q64663 (whole entry, unmodified, looked up): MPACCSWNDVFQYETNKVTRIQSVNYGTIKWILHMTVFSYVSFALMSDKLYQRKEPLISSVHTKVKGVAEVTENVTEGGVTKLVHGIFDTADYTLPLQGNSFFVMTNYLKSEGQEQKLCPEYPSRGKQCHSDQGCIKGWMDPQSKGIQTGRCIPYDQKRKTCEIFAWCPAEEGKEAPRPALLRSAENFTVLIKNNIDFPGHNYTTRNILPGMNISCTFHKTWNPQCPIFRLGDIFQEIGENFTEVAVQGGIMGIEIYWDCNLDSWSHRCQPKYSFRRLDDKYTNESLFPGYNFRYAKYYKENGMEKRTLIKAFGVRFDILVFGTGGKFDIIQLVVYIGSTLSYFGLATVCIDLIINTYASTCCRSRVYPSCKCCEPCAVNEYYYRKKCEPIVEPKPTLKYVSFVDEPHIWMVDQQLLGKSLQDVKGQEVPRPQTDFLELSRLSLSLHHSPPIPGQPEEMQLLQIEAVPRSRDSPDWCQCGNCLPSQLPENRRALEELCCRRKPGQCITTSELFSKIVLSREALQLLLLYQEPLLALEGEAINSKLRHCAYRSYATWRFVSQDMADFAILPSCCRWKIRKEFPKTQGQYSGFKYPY
# Chain of UniProt P51575 (whole entry, unmodified, looked up): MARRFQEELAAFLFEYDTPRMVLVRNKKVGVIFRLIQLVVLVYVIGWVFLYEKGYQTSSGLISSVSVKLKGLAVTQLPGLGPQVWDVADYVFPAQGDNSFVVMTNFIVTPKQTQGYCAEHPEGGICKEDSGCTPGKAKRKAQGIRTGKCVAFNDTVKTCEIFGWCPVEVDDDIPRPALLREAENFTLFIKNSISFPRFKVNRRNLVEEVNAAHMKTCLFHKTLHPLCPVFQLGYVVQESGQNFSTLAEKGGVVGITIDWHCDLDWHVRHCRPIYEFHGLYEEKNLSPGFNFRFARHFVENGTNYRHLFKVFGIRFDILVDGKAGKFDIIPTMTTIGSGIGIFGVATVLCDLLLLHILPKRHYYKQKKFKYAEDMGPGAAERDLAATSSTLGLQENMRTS
# Chain of UniProt Q92570 (whole entry, looked up): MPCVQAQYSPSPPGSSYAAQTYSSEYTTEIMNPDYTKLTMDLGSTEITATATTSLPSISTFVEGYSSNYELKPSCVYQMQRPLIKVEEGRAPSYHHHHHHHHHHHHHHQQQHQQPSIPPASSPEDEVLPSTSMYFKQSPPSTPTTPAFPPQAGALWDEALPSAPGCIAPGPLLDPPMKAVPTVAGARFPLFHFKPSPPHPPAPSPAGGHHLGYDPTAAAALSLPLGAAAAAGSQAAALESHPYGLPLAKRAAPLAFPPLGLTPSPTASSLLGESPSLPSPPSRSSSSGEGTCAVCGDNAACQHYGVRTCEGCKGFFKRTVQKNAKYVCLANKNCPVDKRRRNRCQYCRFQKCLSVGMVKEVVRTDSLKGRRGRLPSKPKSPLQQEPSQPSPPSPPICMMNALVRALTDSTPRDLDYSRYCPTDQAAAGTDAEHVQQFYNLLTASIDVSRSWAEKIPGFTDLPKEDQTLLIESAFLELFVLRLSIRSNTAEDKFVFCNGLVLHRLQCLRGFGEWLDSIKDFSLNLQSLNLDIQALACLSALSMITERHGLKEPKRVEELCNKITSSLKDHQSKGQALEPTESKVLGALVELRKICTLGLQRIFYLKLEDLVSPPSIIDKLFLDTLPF
# Chain of UniProt P11388 (whole entry, looked up): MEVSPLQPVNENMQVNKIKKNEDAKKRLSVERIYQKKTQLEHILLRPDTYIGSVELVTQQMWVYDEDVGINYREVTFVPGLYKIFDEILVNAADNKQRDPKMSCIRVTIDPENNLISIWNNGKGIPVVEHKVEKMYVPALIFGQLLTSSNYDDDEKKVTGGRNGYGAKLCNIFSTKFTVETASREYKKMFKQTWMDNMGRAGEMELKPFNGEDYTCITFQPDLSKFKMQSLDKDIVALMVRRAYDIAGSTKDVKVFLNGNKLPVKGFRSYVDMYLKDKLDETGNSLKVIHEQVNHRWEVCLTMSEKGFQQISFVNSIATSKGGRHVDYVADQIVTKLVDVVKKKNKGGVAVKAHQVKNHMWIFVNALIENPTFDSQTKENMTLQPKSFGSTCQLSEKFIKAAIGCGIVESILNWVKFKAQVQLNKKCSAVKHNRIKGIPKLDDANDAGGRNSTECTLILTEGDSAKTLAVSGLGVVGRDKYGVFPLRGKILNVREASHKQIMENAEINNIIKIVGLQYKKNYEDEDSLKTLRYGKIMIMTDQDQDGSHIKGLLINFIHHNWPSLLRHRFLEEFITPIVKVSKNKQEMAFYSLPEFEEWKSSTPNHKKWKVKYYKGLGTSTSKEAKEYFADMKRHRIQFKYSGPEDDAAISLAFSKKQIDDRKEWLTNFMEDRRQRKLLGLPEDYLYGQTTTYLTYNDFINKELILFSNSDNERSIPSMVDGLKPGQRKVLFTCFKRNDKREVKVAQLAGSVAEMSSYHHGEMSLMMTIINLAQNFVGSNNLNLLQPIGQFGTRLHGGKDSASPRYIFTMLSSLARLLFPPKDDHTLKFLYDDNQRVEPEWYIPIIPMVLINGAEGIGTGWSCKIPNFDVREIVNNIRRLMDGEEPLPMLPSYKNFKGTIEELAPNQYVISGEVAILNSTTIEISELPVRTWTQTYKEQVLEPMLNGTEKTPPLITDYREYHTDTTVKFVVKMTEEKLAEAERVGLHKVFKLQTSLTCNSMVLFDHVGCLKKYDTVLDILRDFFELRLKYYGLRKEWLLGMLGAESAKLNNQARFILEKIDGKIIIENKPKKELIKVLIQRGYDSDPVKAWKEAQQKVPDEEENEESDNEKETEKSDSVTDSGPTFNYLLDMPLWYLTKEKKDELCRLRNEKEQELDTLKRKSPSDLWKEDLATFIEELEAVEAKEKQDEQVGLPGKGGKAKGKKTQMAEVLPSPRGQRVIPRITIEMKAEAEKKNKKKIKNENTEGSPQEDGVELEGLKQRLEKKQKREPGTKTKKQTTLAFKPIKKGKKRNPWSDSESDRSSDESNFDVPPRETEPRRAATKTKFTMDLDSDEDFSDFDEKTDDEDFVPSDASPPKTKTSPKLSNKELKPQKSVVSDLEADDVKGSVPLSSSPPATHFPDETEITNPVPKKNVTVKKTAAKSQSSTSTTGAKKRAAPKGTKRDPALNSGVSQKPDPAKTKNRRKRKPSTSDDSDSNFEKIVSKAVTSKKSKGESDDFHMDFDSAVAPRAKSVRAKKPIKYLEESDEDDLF
# Chain of UniProt P51449 (whole entry, looked up): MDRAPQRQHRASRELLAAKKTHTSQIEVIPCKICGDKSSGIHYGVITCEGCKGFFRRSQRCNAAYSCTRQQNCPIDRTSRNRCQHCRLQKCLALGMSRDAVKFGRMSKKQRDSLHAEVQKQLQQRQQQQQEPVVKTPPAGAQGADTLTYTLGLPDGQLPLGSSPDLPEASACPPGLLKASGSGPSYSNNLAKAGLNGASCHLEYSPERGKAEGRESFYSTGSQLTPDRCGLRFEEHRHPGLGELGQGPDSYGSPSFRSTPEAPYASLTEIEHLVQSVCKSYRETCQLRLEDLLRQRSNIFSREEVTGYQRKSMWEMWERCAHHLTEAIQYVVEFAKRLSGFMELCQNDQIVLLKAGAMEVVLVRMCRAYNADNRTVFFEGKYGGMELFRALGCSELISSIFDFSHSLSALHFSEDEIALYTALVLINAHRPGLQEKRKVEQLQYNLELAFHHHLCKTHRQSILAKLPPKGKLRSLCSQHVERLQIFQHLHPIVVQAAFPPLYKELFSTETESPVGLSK
Structure (SMILES),target,assay,test system,setting,scale,quantity,result
COc1cc(Nc2ncc3c(n2)-c2ccc(Cl)cc2C(c2c(F)cccc2OC)=NC3)ccc1C(=O)O,MAPKAPK2,kinase activity,,1 µM,,remaining activity,111%
C[C@]12CCC(=O)C=C1CC[C@@H]1[C@@H]2CC[C@@]2(C)[C@H]1CC[C@]2(O)C(=O)CO,Genome polyprotein NS3 helicase domain,"DNA binding, inhibitor",hepatitis C virus,"100 µM, together with: Cy5-dT15 DNA",,inhibition,0%
CCCCCCSC[C@H]1CN(Cc2c[nH]c3c(N)ncnc23)C[C@@H]1O,"Aminodeoxyfutalosine nucleosidase (Helicobacter pylori, UniProt Q9ZMY2)",radiolabel chase ultrafiltration,,"pH 7.4, inhibitor off-rate",,k4,0.032 ± 0.004 min⁻¹
CC(=O)Nc1ccc(O)cc1,"Bromodomain-containing protein 4 (BRD4, Homo sapiens, UniProt O60885)","19F NMR, measured: tyrosine 97",,48 µM,baseline: free protein,chemical shift change,-0.064 ppm
CCn1c(=O)[nH]c2cc(C(=O)NC(c3ccc(F)cc3)c3cnn(C)c3)ccc2c1=O (centres unmarked),WD repeat-containing protein 91,"binding, SPR steady state",,15 µM,,SPR response,27.9 RU
COc1cc2c(=O)c(-c3ccc(O)cc3)coc2cc1O,ESR1,array formation,PRL-HeLa,,baseline: EC50 ERβ over EC50 ERα,selectivity ratio,17.3
N#CC1CCN(C(=O)c2ccc(OC3CCC3)cc2)CC1,"WD repeat-containing protein 91 WD40 domain, residues 392–747",SPR,,45 µM,,binding,-31% and -6%
O=c1nc(SCc2cc(F)cc(C(F)(F)F)c2)nc(SCc2ccc3nc(Cl)ccc3c2)[nH]1,"DNA topoisomerase 2-alpha (TOP2A, Homo sapiens, UniProt P11388)",DNA relaxation,,"31.25 µM, replicate 2",,relaxed DNA,92.2%
O=C(O)CCCCC1CCSS1 (racemic),Genome polyprotein NS3 helicase domain,"DNA binding, inhibitor",hepatitis C virus,"100 µM, together with: Cy5-dT15 DNA",,inhibition,0%
COc1c(C#N)cccc1CC(=O)Nc1ccc2c(c1)CCCN2C(=O)c1ccccc1,"WD repeat-containing protein 91 WD40 domain, residues 392–747",SPR,,45 µM,,binding,126% and 118%
COc1cccc2c(Nc3ccc4[nH]c(C(=O)N/N=C/c5ccc(SC)cc5)cc4c3)cc(C)nc12,"Nuclear receptor subfamily 4 group A member 3, ligand-binding domain (Homo sapiens, UniProt Q92570)","reporter gene, Gal4 hybrid reporter",,3 µM,baseline: vehicle,activation,0.71 fold
C=CC(=O)N1CCC(COCC(=O)N2CCN(c3nc(-c4cnc(N)nc4C(F)F)nc(N4CCOC[C@@H]4C)n3)CC2)CC1,"Serine/threonine-protein kinase Nek7 (NEK7, Homo sapiens, UniProt Q8TDX7)",KINOMEscan,,1 µM,,remaining binding,89%
Nc1ncnc2c1ncn2[C@@H]1O[C@H](CO[P@](=O)(O)O[P@](=O)(O)O[P@@](=O)(O)S)[C@@H](O)[C@H]1O,"GUK1 (Homo sapiens, UniProt Q16774)",ITC,,concentration not given,,-TΔS of binding,-1.81 kcal/mol
Cc1ccc(-c2cc(C(=O)N3CCN(c4cccc(C(F)(F)F)c4)CC3)c3ccccc3n2)o1,"Nuclear receptor ROR-gamma (RORC, Homo sapiens, UniProt P51449)",cell-based,,concentration not given,,activity class,active
N#CC1CCN(C(=O)c2ccc(Cn3cc(-c4ccc5ncccc5c4)nn3)cc2)CC1,"WD repeat-containing protein 91 WD40 domain, residues 392–747",SPR,,45 µM,,binding,5% and 6%
CC[C@H](C)[C@H](NC(=O)[C@H](CCC(=O)O)NC(=O)[C@H](CCC(=O)O)NC(=O)[C@@H]1CCCN1C(=O)[C@H](CC(=O)O)NC(=O)[C@H](C)NC(=O)[C@H](CCC(N)=O)NC(=O)[C@@H](NC(=O)[C@H](C)NC(=O)[C@@H](NC(=O)[C@H](CO)NC(=O)[C@@H](NC(=O)[C@H](CCCCN)NC(=O)[C@@H](N)Cc1ccc(O)cc1)[C@@H](C)O)C(C)C)[C@@H](C)O)C(=O)N[C@H](C(=O)N[C@H](C(=O)N[C@@H](CC(C)C)C(=O)N[C@@H](CC(=O)O)C(=O)N[C@@H](CC(=O)O)C(=O)N[C@@H](CC(=O)O)C(=O)N[C@@H](CC(=O)O)C(=O)O)C(C)C)[C@@H](C)CC,"Small ubiquitin-related modifier 2 (Homo sapiens, UniProt P61956, C48A)",isothermal titration calorimetry,,"pH 7.4, SUMO2 construct",,-TΔS,-10.3 ± 0.2 kcal/mol
O=C1NC(=O)C(c2ccccc2)(c2ccccc2)N1,Genome polyprotein NS3 helicase domain,"DNA binding, inhibitor",hepatitis C virus,"100 µM, together with: Cy5-dT15 DNA",,inhibition,1%
CSCC[C@H](NC(=O)[C@@H]1CCCN1C(C)=O)C(=O)N[C@@H](C)C(=O)N[C@@H](CO)C(=O)N[C@@H](CC(=O)O)C(=O)N1CCC[C@H]1C(=O)N[C@@H](CC(C)C)C(=O)NCC(=O)N[C@H](C(=O)N[C@H](C(=O)N[C@@H](CCCNC(=N)N)C(=O)N1CCC[C@H]1C(=O)N[C@@H](CCCNC(=N)N)C(=O)N[C@@H](C)C(=O)N[C@@H](CCCNC(=N)N)C(=O)N[C@@H](C)C(=O)NCCCC[C@H](NC(=O)[C@H](C)NC(=O)[C@H](CCCNC(=N)N)NC(=O)[C@H](C)NC(=O)[C@H](CCCNC(=N)N)NC(=O)[C@@H]1CCCN1C(=O)[C@H](CCCNC(=N)N)NC(=O)[C@@H](NC(=O)[C@@H](NC(=O)CNC(=O)[C@H](CC(C)C)NC(=O)[C@@H]1CCCN1C(=O)[C@H](CC(=O)O)NC(=O)[C@H](CO)NC(=O)[C@H](C)NC(=O)[C@H](CCSC)NC(=O)[C@@H]1CCCN1C(C)=O)C(C)C)C(C)C)C(=O)NCCC(=O)N[C@@H](CCCCNC(=O)CCOCCOCCOCCOCCNC(=O)CCCC[C@@H]1SC[C@@H]2NC(=O)N[C@@H]21)C(N)=O)C(C)C)C(C)C,antibody 12CA5,biolayer interferometry,,"concentration not given, together with: 12CA5 7.8-1000 nM",,binding,no binding
Nc1ncnc2c1ncn2[C@@H]1O[C@H](COP(=O)(O)OP(=O)(O)OP(=O)(O)O)[C@@H](O)[C@H]1O,"P2X purinoceptor 7 (P2rx7, Rattus norvegicus, UniProt Q64663, I214A)","ion current, agonist, two-electrode voltage clamp",Xenopus laevis oocytes,900 µM,baseline: highest concentration response,normalized current,0.975 and 0.994 and 0.979
NCCCCC(=O)O,"Sodium- and chloride-dependent taurine transporter (SLC6A6, Homo sapiens, UniProt P31641, Y138A)","binding, microscale thermophoresis",,"1.95 µM, room temperature, together with: 50 nM labelled protein",higher = more binding,normalised MST signal,-0.0148
Nc1ncnc2c1ncn2[C@@H]1O[C@H](COP(=O)(O)CP(=O)(O)OP(=O)(O)O)[C@@H](O)[C@H]1O,"P2X purinoceptor 1 (P2RX1, Homo sapiens, UniProt P51575, M214A)",calcium influx,,31.6 nM,baseline: ionomycin response,calcium influx,0.461% and 0% and 1.72% and 0.551%
CCCCCCCCc1ccc([C@H]2CC[C@H]([N+](C)(C)CCC)CC2)cc1.[I-],"Sphingosine kinase 1 (SPHK1, Homo sapiens, UniProt Q9NYA1)","inhibitor, radiometric flash-plate",cell lysate,together with: sphingosine 10 µM,,Ki/Km ratio,2.2
COc1cc(/C=C2\CC/C(=C\c3ccc(O)c(OC)c3)C2=O)ccc1O,haemin,"binding, isothermal titration calorimetry",,"pH 7.4, 37 °C",,ΔH,-23.6 ± 0.492 kcal/mol
O=c1[nH]c(=S)[nH]c(-c2ccccc2)c1Cc1c(O)ccc2ccccc12,Genome polyprotein NS3 helicase domain,"DNA binding, inhibitor",hepatitis C virus,"100 µM, together with: Cy5-dT15 DNA",,inhibition,0%
COc1ccc(CCC(=O)c2ccc(O)cc2)c(OC)c1,ESR1,array formation,PRL-HeLa,,baseline: EC50 ERβ over EC50 ERα,selectivity ratio,0.657
COc1cc(F)ccc1-c1ncnc(Nc2cccc(C[S@](C)(=N)=O)c2)n1,"Ephrin type-A receptor 3 (EPHA3, Homo sapiens, UniProt P29320)",kinase activity,,"10 µM, together with: 10 µM ATP",,remaining activity,87%
O=C(c1cc2cccn2cn1)N1CCN(c2ccc([N+](=O)[O-])c3cnccc23)CC1,"WD repeat-containing protein 91 WD40 domain, residues 392–747","binding, SPR single-concentration screen",,45 µM,,SPR response,11.9 RU and 4.5 RU
C[C@]12CCC(=O)C=C1CC[C@@H]1[C@@H]2C(=O)C[C@@]2(C)[C@H]1CC[C@]2(O)C(=O)CO,Genome polyprotein NS3 helicase domain,"DNA binding, inhibitor",hepatitis C virus,"100 µM, together with: Cy5-dT15 DNA",,inhibition,1%
Nc1c(Br)cc(Br)cc1CN[C@H]1CC[C@H](O)CC1,"Glutamate receptor 2 (Homo sapiens, UniProt P42262)","ion current, agonist, SyncroPatch patch clamp",HEK293,10 µM,,activation,8%
Nc1ncnc2c1ncn2[C@@H]1O[C@H](COP(=O)(O)OP(=O)(O)OP(=O)(O)O)[C@@H](O)[C@H]1O,"Hexokinase-3 (HK3, Homo sapiens, UniProt P52790, D264A/R265A)",substrate,,"mutant D264A/R265A, together with: glucose 0.5 mM",,kcat,46 ± 24 s⁻¹
O=C(NC1CCCS(=O)(=O)c2ccccc21)c1ccc2nc(O)cnc2c1 (centres unmarked),WD repeat-containing protein 91,"binding, SPR steady state",,0.9375 µM,,SPR response,7.33 RU
CC[C@H](C)[C@H](NC(=O)[C@H](CCCCN)NC(=O)CNC(=O)[C@@H](NC(=O)[C@@H](NC(=O)[C@H](CCSC)NC(=O)[C@H](Cc1c[nH]cn1)NC(=O)CN)[C@@H](C)O)C(C)C)C(=O)N[C@@H](Cc1ccc(O)cc1)C(=O)N[C@@H](C)C(=O)N[C@@H](C)C(=O)N[C@@H](CCSC)C(=O)N[C@@H](CCSC)C(=O)N[C@@H](C)C(=O)N[C@@H](CCSC)C(=O)N[C@@H](CCC(=O)O)C(=O)N[C@@H](Cc1ccc(O)cc1)C(=O)N[C@@H](Cc1ccc(O)cc1)C(=O)N[C@@H](CCCNC(=N)N)C(=O)N[C@@H](CCC(N)=O)C(=O)N[C@@H](CO)C(=O)N[C@@H](CCCCN)C(=O)N[C@@H](C)C(=O)N[C@@H](CCCCN)C(=O)N[C@@H](CCCCN)C(=O)N[C@@H](CC(C)C)C(=O)N[C@@H](CCC(N)=O)C(=O)N[C@@H](C)C(=O)N[C@@H](CCSC)C(=O)N[C@@H](CCCNC(=N)N)C(=O)O,"Calmodulin-1, Ca2+-bound N-lobe (CALM1, Homo sapiens, UniProt P0DP23)","binding, isothermal titration calorimetry",,"pH 7.4, 15 °C, N-lobe, CaV2.1 IQ domain, together with: Ca2+",,ΔS,16.5 cal/mol/K

# Repeated from above:
Structure (SMILES),target,assay,test system,setting,scale,quantity,result
CSCC[C@H](NC(=O)[C@@H]1CCCN1C(C)=O)C(=O)N[C@@H](C)C(=O)N[C@@H](CO)C(=O)N[C@@H](CC(=O)O)C(=O)N1CCC[C@H]1C(=O)N[C@@H](CC(C)C)C(=O)NCC(=O)N[C@H](C(=O)N[C@H](C(=O)N[C@@H](CCCNC(=N)N)C(=O)N1CCC[C@H]1C(=O)N[C@@H](CCCNC(=N)N)C(=O)N[C@@H](C)C(=O)N[C@@H](CCCNC(=N)N)C(=O)N[C@@H](C)C(=O)NCCCC[C@H](NC(=O)[C@H](C)NC(=O)[C@H](CCCNC(=N)N)NC(=O)[C@H](C)NC(=O)[C@H](CCCNC(=N)N)NC(=O)[C@@H]1CCCN1C(=O)[C@H](CCCNC(=N)N)NC(=O)[C@@H](NC(=O)[C@@H](NC(=O)CNC(=O)[C@H](CC(C)C)NC(=O)[C@@H]1CCCN1C(=O)[C@H](CC(=O)O)NC(=O)[C@H](CO)NC(=O)[C@H](C)NC(=O)[C@H](CCSC)NC(=O)[C@@H]1CCCN1C(C)=O)C(C)C)C(C)C)C(=O)NCCC(=O)N[C@@H](CCCCNC(=O)CCOCCOCCOCCOCCNC(=O)CCCC[C@@H]1SC[C@@H]2NC(=O)N[C@@H]21)C(N)=O)C(C)C)C(C)C,antibody 12CA5,biolayer interferometry,,"concentration not given, together with: 12CA5 7.8-1000 nM",,binding,no binding
Nc1ncnc2c1ncn2[C@@H]1O[C@H](COP(=O)(O)OP(=O)(O)OP(=O)(O)O)[C@@H](O)[C@H]1O,"P2X purinoceptor 7 (P2rx7, Rattus norvegicus, UniProt Q64663, I214A)","ion current, agonist, two-electrode voltage clamp",Xenopus laevis oocytes,900 µM,baseline: highest concentration response,normalized current,0.975 and 0.994 and 0.979
NCCCCC(=O)O,"Sodium- and chloride-dependent taurine transporter (SLC6A6, Homo sapiens, UniProt P31641, Y138A)","binding, microscale thermophoresis",,"1.95 µM, room temperature, together with: 50 nM labelled protein",higher = more binding,normalised MST signal,-0.0148
Nc1ncnc2c1ncn2[C@@H]1O[C@H](COP(=O)(O)CP(=O)(O)OP(=O)(O)O)[C@@H](O)[C@H]1O,"P2X purinoceptor 1 (P2RX1, Homo sapiens, UniProt P51575, M214A)",calcium influx,,31.6 nM,baseline: ionomycin response,calcium influx,0.461% and 0% and 1.72% and 0.551%
CCCCCCCCc1ccc([C@H]2CC[C@H]([N+](C)(C)CCC)CC2)cc1.[I-],"Sphingosine kinase 1 (SPHK1, Homo sapiens, UniProt Q9NYA1)","inhibitor, radiometric flash-plate",cell lysate,together with: sphingosine 10 µM,,Ki/Km ratio,2.2
